Measurements pooled from the literature.
Compare with care: the assays were run in different laboratories. Numbers after ± are the reported error.
UniProt P17812, sequence (whole entry, looked up): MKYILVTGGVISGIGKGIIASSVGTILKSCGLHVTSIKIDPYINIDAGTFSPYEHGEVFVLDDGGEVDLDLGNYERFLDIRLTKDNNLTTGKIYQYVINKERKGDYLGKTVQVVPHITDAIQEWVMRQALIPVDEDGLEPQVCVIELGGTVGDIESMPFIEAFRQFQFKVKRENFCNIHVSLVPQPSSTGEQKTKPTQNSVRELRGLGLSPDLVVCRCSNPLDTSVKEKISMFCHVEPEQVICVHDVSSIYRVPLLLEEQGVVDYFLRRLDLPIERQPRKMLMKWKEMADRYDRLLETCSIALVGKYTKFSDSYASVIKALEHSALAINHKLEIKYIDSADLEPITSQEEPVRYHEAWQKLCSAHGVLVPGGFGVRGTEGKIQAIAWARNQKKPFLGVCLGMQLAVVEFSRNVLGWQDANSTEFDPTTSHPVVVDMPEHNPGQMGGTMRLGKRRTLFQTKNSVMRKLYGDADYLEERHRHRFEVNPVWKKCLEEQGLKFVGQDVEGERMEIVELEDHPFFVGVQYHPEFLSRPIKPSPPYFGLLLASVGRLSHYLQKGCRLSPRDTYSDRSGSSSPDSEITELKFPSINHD
UniProt Q96DB2, sequence (whole entry, looked up): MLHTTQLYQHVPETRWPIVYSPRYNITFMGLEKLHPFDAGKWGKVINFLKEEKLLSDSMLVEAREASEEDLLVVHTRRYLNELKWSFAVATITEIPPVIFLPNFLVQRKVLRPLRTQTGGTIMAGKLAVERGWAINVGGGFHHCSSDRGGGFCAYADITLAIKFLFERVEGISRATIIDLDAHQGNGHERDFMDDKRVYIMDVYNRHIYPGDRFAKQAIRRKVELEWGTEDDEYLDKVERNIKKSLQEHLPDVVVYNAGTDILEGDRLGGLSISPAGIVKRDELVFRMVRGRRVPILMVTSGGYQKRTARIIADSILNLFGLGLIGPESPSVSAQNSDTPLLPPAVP
UniProt P58215, sequence (whole entry, looked up): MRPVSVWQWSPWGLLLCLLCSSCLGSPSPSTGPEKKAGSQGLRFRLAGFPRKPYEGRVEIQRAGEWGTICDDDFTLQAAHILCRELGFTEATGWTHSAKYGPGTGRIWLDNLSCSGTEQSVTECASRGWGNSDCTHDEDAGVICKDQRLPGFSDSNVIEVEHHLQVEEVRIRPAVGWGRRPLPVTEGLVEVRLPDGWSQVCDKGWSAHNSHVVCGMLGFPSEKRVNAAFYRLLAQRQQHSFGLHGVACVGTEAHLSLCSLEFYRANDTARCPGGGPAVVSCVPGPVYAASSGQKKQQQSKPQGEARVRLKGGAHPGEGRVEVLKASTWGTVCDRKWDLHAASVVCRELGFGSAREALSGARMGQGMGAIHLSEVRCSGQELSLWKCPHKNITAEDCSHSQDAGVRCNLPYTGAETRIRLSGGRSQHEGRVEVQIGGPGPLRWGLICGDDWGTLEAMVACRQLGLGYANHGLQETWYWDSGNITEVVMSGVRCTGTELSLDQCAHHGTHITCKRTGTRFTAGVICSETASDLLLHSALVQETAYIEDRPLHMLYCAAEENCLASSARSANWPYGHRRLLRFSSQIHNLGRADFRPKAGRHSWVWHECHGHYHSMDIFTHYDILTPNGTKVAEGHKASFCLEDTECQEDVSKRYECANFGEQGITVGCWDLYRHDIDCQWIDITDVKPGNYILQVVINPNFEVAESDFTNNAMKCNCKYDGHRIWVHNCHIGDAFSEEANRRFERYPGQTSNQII
UniProt Q13393, sequence (whole entry, looked up): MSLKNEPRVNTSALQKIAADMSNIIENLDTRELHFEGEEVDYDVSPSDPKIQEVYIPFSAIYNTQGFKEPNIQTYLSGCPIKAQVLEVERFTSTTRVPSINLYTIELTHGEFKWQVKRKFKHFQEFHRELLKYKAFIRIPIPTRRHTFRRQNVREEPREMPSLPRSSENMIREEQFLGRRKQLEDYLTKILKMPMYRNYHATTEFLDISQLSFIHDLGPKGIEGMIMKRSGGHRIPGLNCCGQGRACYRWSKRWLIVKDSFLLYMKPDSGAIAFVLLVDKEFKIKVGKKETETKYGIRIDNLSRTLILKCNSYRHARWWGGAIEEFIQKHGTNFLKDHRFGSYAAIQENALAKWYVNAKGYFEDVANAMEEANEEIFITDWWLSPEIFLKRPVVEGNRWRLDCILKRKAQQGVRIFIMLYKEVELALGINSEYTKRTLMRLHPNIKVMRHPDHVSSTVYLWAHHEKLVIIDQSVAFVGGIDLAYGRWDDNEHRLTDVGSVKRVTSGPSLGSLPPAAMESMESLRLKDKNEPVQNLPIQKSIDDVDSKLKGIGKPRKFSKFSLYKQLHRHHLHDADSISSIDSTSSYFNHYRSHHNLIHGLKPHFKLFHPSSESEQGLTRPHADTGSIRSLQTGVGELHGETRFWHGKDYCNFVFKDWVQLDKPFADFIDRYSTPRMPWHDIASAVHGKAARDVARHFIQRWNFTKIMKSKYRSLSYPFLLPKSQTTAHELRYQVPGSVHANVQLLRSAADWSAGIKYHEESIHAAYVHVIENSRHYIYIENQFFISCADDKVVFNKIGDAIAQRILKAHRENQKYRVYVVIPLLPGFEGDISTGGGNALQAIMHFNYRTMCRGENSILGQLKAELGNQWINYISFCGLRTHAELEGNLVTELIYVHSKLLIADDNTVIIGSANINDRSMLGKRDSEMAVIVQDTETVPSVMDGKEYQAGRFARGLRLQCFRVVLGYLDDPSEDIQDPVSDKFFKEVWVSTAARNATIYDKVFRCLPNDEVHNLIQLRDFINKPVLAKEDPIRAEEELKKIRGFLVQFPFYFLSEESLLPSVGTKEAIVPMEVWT
UniProt O43148, sequence (whole entry, looked up): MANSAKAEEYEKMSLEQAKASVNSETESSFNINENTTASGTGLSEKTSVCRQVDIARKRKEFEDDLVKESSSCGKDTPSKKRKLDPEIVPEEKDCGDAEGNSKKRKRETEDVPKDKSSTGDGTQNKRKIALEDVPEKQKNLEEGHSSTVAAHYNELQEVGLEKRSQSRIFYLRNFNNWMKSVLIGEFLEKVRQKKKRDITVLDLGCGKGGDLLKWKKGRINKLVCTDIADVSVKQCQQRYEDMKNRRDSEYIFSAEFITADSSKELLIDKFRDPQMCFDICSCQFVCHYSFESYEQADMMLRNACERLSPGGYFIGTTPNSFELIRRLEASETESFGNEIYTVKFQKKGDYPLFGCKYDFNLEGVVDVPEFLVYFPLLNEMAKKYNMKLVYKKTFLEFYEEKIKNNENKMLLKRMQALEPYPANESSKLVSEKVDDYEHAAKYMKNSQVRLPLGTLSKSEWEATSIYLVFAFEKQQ
UniProt A6TAP2, sequence (whole entry, looked up): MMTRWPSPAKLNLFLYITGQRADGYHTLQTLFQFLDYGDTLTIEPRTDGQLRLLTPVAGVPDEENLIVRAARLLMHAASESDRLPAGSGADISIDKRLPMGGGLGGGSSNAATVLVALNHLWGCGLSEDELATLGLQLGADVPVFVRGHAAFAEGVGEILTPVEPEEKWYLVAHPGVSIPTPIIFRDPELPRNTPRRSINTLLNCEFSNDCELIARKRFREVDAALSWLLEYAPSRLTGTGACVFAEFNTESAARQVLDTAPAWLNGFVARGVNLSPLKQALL
UniProt P18031, sequence (whole entry, looked up): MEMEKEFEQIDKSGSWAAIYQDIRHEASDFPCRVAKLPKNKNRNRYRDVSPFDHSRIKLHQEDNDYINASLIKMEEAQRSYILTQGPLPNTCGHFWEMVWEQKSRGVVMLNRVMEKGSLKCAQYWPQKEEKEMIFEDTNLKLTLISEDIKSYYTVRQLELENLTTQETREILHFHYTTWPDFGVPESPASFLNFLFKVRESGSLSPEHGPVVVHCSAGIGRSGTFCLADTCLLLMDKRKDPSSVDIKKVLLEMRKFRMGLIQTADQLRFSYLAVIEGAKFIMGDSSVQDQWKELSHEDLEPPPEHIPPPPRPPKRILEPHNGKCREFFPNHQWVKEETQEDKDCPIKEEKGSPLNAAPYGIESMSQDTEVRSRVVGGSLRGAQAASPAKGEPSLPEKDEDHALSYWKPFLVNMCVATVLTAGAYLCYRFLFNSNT

| SMILES | target | assay | system | conditions | IC50 [µM] |
| --- | --- | --- | --- | --- | --- |
| Cc1ccc2c(n1)c(-c1cccc(S(C)(=O)=O)c1)c(C)n2C/C(F)=C/CN | LOXL3 (Homo sapiens, UniProt P58215) | enzyme activity, inhibitor, fluorescence | – | with preincubation | 0.02 |
| CC(C)[C@H]1NC(=O)[C@H](CO)NC(=O)c2cc3cc(c2)C(=O)NC[C@H](NC(=O)[C@H](Cc2c[nH]cn2)NC(=O)[C@H](Cc2ccc(C(F)(F)P(=O)(O)O)cc2)NC(=O)[C@@H]2CCCN2C1=O)C(=O)N[C@@H](Cc1ccccc1)C(=O)N[C@@H](Cc1ccc2ccccc2c1)C(=O)N[C@@H](CCCNC(=N)N)C(=O)N[C@@H](CCCNC(=N)N)C(=O)N[C@@H](CCCNC(=N)N)C(=O)N[C@@H](CCCNC(=N)N)C(=O)N[C@H](C(=O)N[C@@H](CCCCN)C(N)=O)CNC3=O | PTPN1 (Homo sapiens, UniProt P18031) | enzyme activity, inhibitor, absorbance | – | – | 0.03 |
| CC[C@H](C)[C@@H]1NC(=O)[C@H](Cc2ccccc2)NC(=O)[C@H](CC(N)=O)NC(=O)[C@@H](NC(=O)[C@@H](NC(=O)[C@H](CO)NC(=O)[C@@H](N)Cc2ccc(O)cc2)[C@@H](C)O)CSC(=O)[C@H](CCSC)NC1=O | agrC (Staphylococcus aureus, UniProt O07911) | – | – | – | 0.0724 |
| CCCn1nnc(-c2cccc(NC(=O)[C@H](C)CS)c2)n1 | VIM-2 (Escherichia coli, UniProt Q5U7L7) | enzyme activity, inhibitor, fluorescence | – | with preincubation | 0.0182 |
| O=C(NCCN1CCC2(CC1)C(=O)NCN2Cc1ccncc1)c1ccc2ccccc2c1 | Phospholipase D1 (Homo sapiens, UniProt Q13393) | enzyme activity, inhibitor | – | – | 24 |
| O=C(Cc1ccc(F)cc1)Nc1nc(-c2ccccn2)cs1 | CTP synthase 1 (Homo sapiens, UniProt P17812) | enzyme activity, inhibitor, ADP detection | – | – | > 100 |
| Nc1ncc(Br)cc1C(=O)N1CCCCC1 | 4-diphosphocytidyl-2-C-methyl-D-erythritol kinase (ispE, Klebsiella pneumoniae subsp. pneumoniae, UniProt A6TAP2) | enzyme activity, PK/LDH coupled spectrophotometric | – | – | > 500 |
| Cc1ccc(C(C)C)cc1.[Cl][Au].[Cl][Ru][Cl].c1ccc(P(CP(c2ccccc2)c2ccccc2)c2ccccc2)cc1 | Cathepsin B (CTSB, Homo sapiens, UniProt P07858) | enzyme activity, inhibitor, fluorescence | – | – | 31 |
| CCCCCCCCCCCCCCCC[N+](C)(C)CCN(Cc1ccc(OC)cc1)c1ncccn1 | RNMT (Homo sapiens, UniProt O43148) | enzyme activity, inhibitor | – | – | 1 |
| CC[C@H](C)[C@H](N)C(=O)N[C@@H](CO)C(=O)N[C@@H](CCC(N)=O)C(=O)N[C@H](C(=O)N[C@@H](CC(N)=O)C(=O)N[C@@H](CCC(=O)O)C(=O)N[C@@H](CCCCN)C(=O)N[C@H](C(=O)N[C@@H](CC(N)=O)C(=O)N[C@@H](CCC(N)=O)C(=O)N[C@@H](CO)C(=O)N[C@@H](CC(C)C)C(=O)N[C@@H](C)C(=O)N[C@@H](Cc1ccccc1)C(=O)N[C@H](C(=O)N[C@@H](CCCNC(=N)N)C(=O)N[C@@H](CCCCN)C(=O)N[C@@H](CO)C(=O)N[C@@H](CC(=O)O)C(=O)N[C@@H](CCC(=O)O)C(=O)N(CCOC)CC(N)=O)[C@@H](C)CC)[C@@H](C)CC)C(C)C | hRSV fusion protein 5-helix bundle | binding, fluorescence polarization | – | added: Fl-C35 tracer 5 nM | > 200 |
| CCC[C@H](NC(=O)[C@H](CC(C)C)NC(=O)OCc1ccccc1)C(=O)C(=O)NCc1ccccn1 | Genome polyprotein, 3C protease (rhinovirus B14, UniProt P03303) | enzyme activity, inhibitor, SAMDI-MS | human rhinovirus | 30 min preincubation, added: substrate 10 µM | > 100 |
| CC1OC(OC2CC(O)C3(CO)C4C(O)CC5(C)C(C6COC(=O)C6)CCC5(O)C4CCC3(O)C2)C(O)C(O)C1O (stereo not shown) | Na+/K+-ATPase (pig cerebral cortex) | enzyme activity, inhibitor, phosphate release colorimetric | – | 30 min, 37 °C, added: ATP-Mg 3 mM | 14.4 ± 0.842 |
| O=C1c2ccccc2[Se](=O)N1c1ccccc1 (stereo not shown) | HDAC11 (Homo sapiens, UniProt Q96DB2) | enzyme activity, inhibitor, fluorescence | – | – | > 10 |

Excerpt of the above:
| SMILES | target | assay | system | conditions | IC50 [µM] |
| --- | --- | --- | --- | --- | --- |
| CC[C@H](C)[C@@H]1NC(=O)[C@H](Cc2ccccc2)NC(=O)[C@H](CC(N)=O)NC(=O)[C@@H](NC(=O)[C@@H](NC(=O)[C@H](CO)NC(=O)[C@@H](N)Cc2ccc(O)cc2)[C@@H](C)O)CSC(=O)[C@H](CCSC)NC1=O | agrC (Staphylococcus aureus, UniProt O07911) | – | – | – | 0.0724 |
| CCCn1nnc(-c2cccc(NC(=O)[C@H](C)CS)c2)n1 | VIM-2 (Escherichia coli, UniProt Q5U7L7) | enzyme activity, inhibitor, fluorescence | – | with preincubation | 0.0182 |
